Published values from different studies.
Compare with care: the assays were run in different laboratories. ± gives the spread as reported.

| SMILES | assay | system | conditions | IC50 |
| --- | --- | --- | --- | --- |
| CN(CC[C@H](N)CC(=O)N[C@H]1C=C[C@H](n2ccc(N)nc2=O)O[C@@H]1C(=O)O)C(=N)N | transcription/translation | Escherichia coli S30 extract | – | 0.002 ± 0.001 µM |
| N.N.O=C([O-])C1(C(=O)[O-])CCC1.[Pt+2] | cell viability | patient-derived ovarian cancer organoids | 96 h | 49.4 µM |
| ON=C1C2CC3CC(C2)CC1C3 | pH gradient | Escherichia coli inverted membrane vesicles | – | > 1000 µM |
| Sc1nc2ccccc2[nH]1 | CoA-CPM signal reduction, CPM fluorescence thiol | cell-free biochemical | assay interference counter-screen, together with: CoA replacing acetyl-CoA | > 125 µM |
| CC(C)=CCC/C(C)=C/C=N\O | pH gradient | Escherichia coli inverted membrane vesicles | – | > 1000 µM |
| COc1ccc(O)c(C(C)(C)C)c1 | DMPD radical scavenging | – | – | 12 µg/mL |
| COc1cc(NC(C)CCCN)c2ncccc2c1 (centres unmarked) | angiogenesis | zebrafish | – | 4 µM |
| Cc1c(C)c2c(c(C)c1O)CCC(C)(C(=O)O)O2 (centres unmarked) | DMPD radical scavenging | – | – | 4.33 µg/mL |
| C[C@H]1O[C@H](O[C@H]2CC[C@H](n3ccc(NC(=O)c4ccc(NC(=O)[C@@](C)(N)CO)cc4)nc3=O)O[C@@H]2C)[C@H](O)[C@@H](O)[C@@H]1N(C)C | transcription/translation | Escherichia coli S30 extract | – | 0.207 ± 0.099 µM |
| Nc1nnc(S)[nH]1 | CoA-CPM signal reduction, CPM fluorescence thiol | cell-free biochemical | assay interference counter-screen, together with: CoA replacing acetyl-CoA | > 125 µM |
| CC(C)=CCCC1(C)CC=NO1 (centres unmarked) | pH gradient | Escherichia coli inverted membrane vesicles | – | > 1000 µM |

A few entries again:
| SMILES | assay | system | conditions | IC50 |
| --- | --- | --- | --- | --- |
| Nc1nnc(S)[nH]1 | CoA-CPM signal reduction, CPM fluorescence thiol | cell-free biochemical | assay interference counter-screen, together with: CoA replacing acetyl-CoA | > 125 µM |
| C[C@H]1O[C@H](O[C@H]2CC[C@H](n3ccc(NC(=O)c4ccc(NC(=O)[C@@](C)(N)CO)cc4)nc3=O)O[C@@H]2C)[C@H](O)[C@@H](O)[C@@H]1N(C)C | transcription/translation | Escherichia coli S30 extract | – | 0.207 ± 0.099 µM |
